Measurements collected from several papers.
Protocols differ between the studies behind these lines. Numbers after ± are the reported error.
Medium: plasma

Compound	host	route	dose	time	notes	endpoint	value
CC(=O)N[C@H](CC(=O)O)C(=O)N[C@H](Cc1c[nH]c2ccccc12)C(=O)N[C@H](Cc1ccccc1)C(=O)N[C@H](CCCCN)C(=O)N[C@H](C)C(=O)N[C@H](Cc1ccccc1)C(=O)N[C@H](Cc1ccc(O)cc1)C(=O)N[C@H](CC(=O)O)C(=O)N[C@H](CCCCN)C(=O)N[C@@H](C(=O)N[C@H](C)C(=O)N[C@H](CCC(=O)O)C(=O)N[C@H](CCCCN)C(=O)N[C@H](Cc1ccccc1)C(=O)N[C@H](CCCCN)C(=O)N[C@H](CCC(=O)O)C(=O)N[C@H](C)C(=O)N[C@H](Cc1ccccc1)C(N)=O)C(C)C	statin-treated high-risk CHD patients	oral	300 mg daily	day 13	median, detected subjects	Tmax	2 h
Cc1ccccc1-c1cc(N2CC[N+](C)([O-])CC2)ncc1N(C)C(=O)C(C)(C)c1cc(C(F)(F)F)cc(C(F)(F)F)c1	healthy volunteers	oral	dose not given	–	netupitant-palonosetron fixed-dose combination	Tmax	4.67 h
COc1cc(C)c(Cc2ccc(O)cc2)cc1[C@@H]1S[C@H](CO)[C@@H](O)[C@H](O)[C@H]1O	Japanese T2DM patients	–	5 mg luseogliflozin	day 7	once daily	Tmax	2 ± 1.12 h
CC(C)(Sc1cc[n+]([O-])cc1-c1ccc(C#N)c2ccccc12)C(=O)OC1OC(C(=O)O)C(O)C(O)C1O (stereo not shown)	–	oral	15 mg	–	normal renal function, fasted	Tmax	3.5 h
Cn1cc(C(N)=O)c(NC2C3CC4CC2CC(O)(C4)C3)c2ccnc1-2 (stereo not shown)	Japanese adults, mild hepatic impairment	oral	150 mg single dose	–	–	Tmax (median)	4 h
CC(C)(Sc1ccncc1-c1ccc(C#N)c2ccccc12)C(=O)OC1OC(C(=O)O)C(O)C(O)C1O (stereo not shown)	–	oral	15 mg	–	normal renal function, fasted	Tmax	2.5 h
Cn1cc(C(N)=O)c(NC2C3CC4CC2CC(OS(=O)(=O)O)(C4)C3)c2ccnc1-2 (stereo not shown)	Japanese adults, normal hepatic function	oral	150 mg single dose	–	–	Tmax (median)	3 h
CN1CCN(c2cc(-c3ccccc3CO)c(N(C)C(=O)C(C)(C)c3cc(C(F)(F)F)cc(C(F)(F)F)c3)cn2)CC1	healthy volunteers	oral	dose not given	–	netupitant-palonosetron fixed-dose combination	Tmax	11 h
NC(=O)c1cnc2[nH]ccc2c1NC1C2CC3CC1CC(OS(=O)(=O)O)(C3)C2 (stereo not shown)	Japanese adults, mild hepatic impairment	oral	150 mg single dose	–	–	Tmax (median)	1.75 h
Cc1ccccc1-c1cc(N2CCNCC2)ncc1N(C)C(=O)C(C)(C)c1cc(C(F)(F)F)cc(C(F)(F)F)c1	healthy volunteers	oral	dose not given	–	–	Tmax	9.85 to 15.3 h

For quick reference, copied from above:
Compound	host	route	dose	time	notes	endpoint	value
Cc1ccccc1-c1cc(N2CCNCC2)ncc1N(C)C(=O)C(C)(C)c1cc(C(F)(F)F)cc(C(F)(F)F)c1	healthy volunteers	oral	dose not given	–	–	Tmax	9.85 to 15.3 h
